Published values of several laboratories.
Parts stem from different laboratories: compare values within a part only. Several values in a cell are separate wells, animals, samples, runs or records.
Sequence of UniProt Q16288 (whole entry, looked up): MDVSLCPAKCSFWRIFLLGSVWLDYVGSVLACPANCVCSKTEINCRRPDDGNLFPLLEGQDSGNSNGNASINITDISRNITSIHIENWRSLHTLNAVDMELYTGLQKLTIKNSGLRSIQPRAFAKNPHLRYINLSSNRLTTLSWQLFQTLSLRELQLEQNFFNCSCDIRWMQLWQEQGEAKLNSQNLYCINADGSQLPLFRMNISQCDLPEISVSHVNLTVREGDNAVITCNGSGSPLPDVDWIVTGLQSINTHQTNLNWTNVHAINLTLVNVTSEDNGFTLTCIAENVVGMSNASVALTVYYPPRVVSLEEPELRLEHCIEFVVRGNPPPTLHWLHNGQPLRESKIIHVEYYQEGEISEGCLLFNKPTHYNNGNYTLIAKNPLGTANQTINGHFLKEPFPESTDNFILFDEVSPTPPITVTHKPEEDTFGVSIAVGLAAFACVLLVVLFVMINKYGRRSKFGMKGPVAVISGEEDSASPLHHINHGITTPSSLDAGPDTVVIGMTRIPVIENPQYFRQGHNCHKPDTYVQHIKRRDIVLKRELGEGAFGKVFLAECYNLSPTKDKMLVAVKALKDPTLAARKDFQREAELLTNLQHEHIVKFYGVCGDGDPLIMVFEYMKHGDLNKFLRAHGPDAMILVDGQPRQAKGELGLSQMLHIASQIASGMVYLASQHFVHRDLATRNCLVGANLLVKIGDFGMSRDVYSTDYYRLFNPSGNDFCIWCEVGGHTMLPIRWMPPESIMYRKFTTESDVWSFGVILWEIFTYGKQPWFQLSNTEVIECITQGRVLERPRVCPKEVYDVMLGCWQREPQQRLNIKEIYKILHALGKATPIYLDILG
Sequence of UniProt O75116 (whole entry, looked up): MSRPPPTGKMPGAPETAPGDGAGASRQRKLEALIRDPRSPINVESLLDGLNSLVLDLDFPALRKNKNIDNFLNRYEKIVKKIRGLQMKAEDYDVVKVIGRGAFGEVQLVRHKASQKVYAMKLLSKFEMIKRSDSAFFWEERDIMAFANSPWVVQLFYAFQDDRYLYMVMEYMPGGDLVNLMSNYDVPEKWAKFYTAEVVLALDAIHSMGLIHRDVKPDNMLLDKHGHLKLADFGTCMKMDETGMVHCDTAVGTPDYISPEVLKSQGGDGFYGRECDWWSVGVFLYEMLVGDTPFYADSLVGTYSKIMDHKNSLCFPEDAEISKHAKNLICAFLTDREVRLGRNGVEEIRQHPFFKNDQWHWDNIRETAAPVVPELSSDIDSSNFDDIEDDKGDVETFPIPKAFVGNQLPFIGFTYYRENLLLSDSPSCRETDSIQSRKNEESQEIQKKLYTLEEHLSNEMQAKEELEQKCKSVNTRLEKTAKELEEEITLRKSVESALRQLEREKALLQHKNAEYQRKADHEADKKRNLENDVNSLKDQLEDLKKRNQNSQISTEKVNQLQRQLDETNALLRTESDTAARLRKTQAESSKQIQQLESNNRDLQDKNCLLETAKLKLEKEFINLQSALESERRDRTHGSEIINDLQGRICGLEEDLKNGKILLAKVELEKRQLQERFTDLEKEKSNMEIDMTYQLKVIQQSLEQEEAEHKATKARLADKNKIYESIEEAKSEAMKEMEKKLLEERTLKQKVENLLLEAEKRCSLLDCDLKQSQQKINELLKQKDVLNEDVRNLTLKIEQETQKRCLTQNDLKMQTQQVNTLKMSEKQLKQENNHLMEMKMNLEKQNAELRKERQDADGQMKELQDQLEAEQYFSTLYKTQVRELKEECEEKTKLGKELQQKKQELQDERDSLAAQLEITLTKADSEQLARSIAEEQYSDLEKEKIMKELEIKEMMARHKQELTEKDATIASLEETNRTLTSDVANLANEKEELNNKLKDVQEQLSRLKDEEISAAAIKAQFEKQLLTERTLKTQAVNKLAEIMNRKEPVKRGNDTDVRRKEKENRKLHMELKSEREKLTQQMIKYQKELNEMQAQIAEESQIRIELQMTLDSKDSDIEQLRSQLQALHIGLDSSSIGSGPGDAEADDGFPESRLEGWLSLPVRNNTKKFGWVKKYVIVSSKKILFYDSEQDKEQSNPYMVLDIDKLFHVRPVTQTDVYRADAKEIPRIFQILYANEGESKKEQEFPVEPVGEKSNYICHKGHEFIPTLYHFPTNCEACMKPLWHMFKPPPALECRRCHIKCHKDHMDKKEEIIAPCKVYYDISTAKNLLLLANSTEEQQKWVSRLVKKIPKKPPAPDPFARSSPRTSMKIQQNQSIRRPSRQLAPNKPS
Sequence of UniProt Q9H422 (whole entry, looked up): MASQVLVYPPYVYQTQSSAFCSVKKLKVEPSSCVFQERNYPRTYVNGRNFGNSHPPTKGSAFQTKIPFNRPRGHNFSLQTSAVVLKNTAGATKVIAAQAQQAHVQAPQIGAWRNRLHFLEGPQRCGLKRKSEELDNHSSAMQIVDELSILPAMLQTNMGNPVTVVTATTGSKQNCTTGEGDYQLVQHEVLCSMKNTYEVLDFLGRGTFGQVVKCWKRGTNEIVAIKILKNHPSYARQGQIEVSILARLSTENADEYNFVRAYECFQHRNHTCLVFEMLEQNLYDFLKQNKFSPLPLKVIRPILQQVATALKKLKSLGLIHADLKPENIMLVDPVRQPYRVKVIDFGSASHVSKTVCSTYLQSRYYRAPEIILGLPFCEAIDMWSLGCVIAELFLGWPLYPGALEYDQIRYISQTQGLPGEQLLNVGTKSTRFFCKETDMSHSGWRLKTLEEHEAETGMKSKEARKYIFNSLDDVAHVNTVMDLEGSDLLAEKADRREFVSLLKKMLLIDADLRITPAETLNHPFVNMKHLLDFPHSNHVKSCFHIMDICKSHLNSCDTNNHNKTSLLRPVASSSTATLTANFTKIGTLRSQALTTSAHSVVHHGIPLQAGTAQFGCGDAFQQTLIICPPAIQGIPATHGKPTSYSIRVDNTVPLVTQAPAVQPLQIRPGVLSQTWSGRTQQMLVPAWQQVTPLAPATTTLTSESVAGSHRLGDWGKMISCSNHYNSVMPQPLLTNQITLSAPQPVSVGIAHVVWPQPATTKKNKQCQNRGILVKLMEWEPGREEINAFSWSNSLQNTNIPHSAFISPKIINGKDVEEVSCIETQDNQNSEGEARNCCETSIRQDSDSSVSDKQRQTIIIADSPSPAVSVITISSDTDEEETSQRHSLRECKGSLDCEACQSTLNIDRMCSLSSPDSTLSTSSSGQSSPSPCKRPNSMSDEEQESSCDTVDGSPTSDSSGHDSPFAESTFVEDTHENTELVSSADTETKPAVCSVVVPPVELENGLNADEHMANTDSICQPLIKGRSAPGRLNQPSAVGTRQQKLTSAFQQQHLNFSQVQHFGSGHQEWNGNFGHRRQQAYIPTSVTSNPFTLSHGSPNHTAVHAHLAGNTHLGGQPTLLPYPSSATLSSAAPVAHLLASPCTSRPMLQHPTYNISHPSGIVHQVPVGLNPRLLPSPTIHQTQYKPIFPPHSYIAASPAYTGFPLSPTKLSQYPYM
Sequence of UniProt Q09013 (whole entry, looked up): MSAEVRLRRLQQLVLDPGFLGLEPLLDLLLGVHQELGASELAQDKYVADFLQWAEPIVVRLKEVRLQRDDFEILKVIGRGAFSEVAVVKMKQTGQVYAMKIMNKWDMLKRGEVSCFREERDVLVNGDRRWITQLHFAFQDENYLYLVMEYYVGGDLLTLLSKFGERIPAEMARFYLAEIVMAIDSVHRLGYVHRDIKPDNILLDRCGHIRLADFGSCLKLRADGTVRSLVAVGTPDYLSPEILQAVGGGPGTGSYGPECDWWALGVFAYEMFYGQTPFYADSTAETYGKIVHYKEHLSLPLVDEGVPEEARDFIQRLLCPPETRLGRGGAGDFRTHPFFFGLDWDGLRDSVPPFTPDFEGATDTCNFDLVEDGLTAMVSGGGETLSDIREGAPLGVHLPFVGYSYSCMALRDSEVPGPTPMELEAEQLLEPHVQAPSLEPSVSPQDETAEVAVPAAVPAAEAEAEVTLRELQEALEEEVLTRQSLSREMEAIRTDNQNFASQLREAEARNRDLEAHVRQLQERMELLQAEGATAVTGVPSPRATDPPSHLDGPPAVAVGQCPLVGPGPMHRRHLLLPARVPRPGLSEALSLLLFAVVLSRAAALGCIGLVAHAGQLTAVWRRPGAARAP
Sequence of UniProt Q96NX5 (whole entry, looked up): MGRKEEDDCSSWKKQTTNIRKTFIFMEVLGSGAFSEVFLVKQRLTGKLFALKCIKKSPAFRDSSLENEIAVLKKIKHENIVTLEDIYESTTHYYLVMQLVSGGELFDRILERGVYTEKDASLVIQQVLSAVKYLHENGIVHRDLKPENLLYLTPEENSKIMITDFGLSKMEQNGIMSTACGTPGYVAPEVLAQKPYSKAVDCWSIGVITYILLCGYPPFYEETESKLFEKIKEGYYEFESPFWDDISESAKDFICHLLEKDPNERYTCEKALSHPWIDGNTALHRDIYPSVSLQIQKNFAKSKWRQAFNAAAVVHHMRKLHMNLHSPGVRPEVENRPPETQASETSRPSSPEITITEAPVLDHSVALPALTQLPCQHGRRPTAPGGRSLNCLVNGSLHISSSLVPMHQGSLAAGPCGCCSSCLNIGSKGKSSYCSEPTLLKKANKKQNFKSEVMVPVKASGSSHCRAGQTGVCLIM
Sequence of UniProt P53779 (whole entry, looked up): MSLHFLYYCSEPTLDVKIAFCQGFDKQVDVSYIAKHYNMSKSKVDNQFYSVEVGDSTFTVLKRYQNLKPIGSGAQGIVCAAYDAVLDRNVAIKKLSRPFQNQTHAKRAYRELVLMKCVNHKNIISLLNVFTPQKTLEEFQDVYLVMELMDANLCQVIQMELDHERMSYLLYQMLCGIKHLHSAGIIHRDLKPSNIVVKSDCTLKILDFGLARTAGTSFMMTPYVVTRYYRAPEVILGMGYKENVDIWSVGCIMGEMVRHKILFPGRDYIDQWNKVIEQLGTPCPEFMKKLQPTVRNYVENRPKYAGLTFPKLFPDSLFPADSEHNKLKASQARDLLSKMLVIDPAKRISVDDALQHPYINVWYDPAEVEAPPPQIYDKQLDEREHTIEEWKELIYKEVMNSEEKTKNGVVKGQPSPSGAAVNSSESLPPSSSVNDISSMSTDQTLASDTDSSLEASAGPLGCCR

Series 1 — SMILES: CCOc1ccc(Nc2c3c(nc4ccccc24)CCC3)cc1; organism: Leishmania donovani; strain: DD8; matrix: promastigotes
For 16.66 µM, 72 h: promastigote number read 1570 and 1250.
It gave 1570 and 1250 for promastigote number (16.66 µM, 48 h).
For 6.66 µM, 48 h: promastigote number read 221000 and 251000.
33.33 µM, 72 h — promastigote number: 1570 and 1260.
For 0.16 µM, 72 h: promastigote number read 9.76e+06 and 9.85e+06.
The promastigote number was 9.76e+06 and 9.86e+06 (0.66 µM, 72 h).

Series 2 — organism: Sarcocystis neurona; effect on: parasite growth; tested at: 10 µM; reference: untreated
`O=C1c2c(O)ccc(O)c2C(=O)c2c(NCCNCCO)ccc(NCCNCCO)c21` — result for “log2 fold change”: -1.43.
`OC[C@H]1O[C@@H](n2cnc3c(NC4CCCC4)nc(Cl)nc32)[C@H](O)[C@@H]1O`: “log2 fold change” 0.3.
`Cl.NC1CCN(c2cccc(Cl)n2)CC1`: “log2 fold change” 0.26.
Under “log2 fold change”, `CCC1=C[C@@H]2CN(C1)Cc1c([nH]c3ccccc13)[C@@](C(=O)OC)(c1cc3c(cc1OC)N(C)[C@H]1[C@@](O)(C(=O)OC)[C@H](OC(C)=O)[C@]4(CC)C=CCN5CC[C@]31[C@@H]54)C2.O=C(O)C(O)C(O)C(=O)O.O=C(O)C(O)C(O)C(=O)O` is recorded as -0.23.
`COc1ccc2[n-]c([S+]([O-])Cc3ncc(C)c(OC)c3C)nc2c1.COc1ccc2[n-]c([S+]([O-])Cc3ncc(C)c(OC)c3C)nc2c1.[Mg+2]` (centres unmarked) — result for “log2 fold change”: -0.49.
For `Fc1ccc([C@@H]2CCNC[C@H]2COc2ccc3c(c2)OCO3)cc1.O=C(O)/C=C\C(=O)O`, “log2 fold change” read -0.07.
Under “log2 fold change”, `Cc1nccn1CC1CCc2c(c3ccccc3n2C)C1=O.Cl` (centres unmarked) is recorded as 0.26.
`COC(=O)C1=C(C)NC(C)=C(C(=O)O[C@@H]2CCCN(Cc3ccccc3)C2)[C@@H]1c1cccc([N+](=O)[O-])c1.Cl` (racemic): “log2 fold change” -0.2.
`COc1ccc(CC(C)NCC(O)c2ccc(O)c(NC=O)c2)cc1.COc1ccc(CC(C)NCC(O)c2ccc(O)c(NC=O)c2)cc1.O.O.O=C(O)/C=C/C(=O)O` (centres unmarked): “log2 fold change” 0.32.

Series 3 — Compound: CCC(=O)Nc1ccc2ncnc(Nc3cccc(Br)c3)c2c1; effect on: enzyme activity; mode: inhibitor; tested at: 0.5 µM; reference: control
For MAPK10 (Homo sapiens, UniProt P53779): remaining activity read 96.5%.
For CDK7 (Homo sapiens, UniProt P50613): remaining activity read 102%.
It gave 97.4% for remaining activity (Aurora kinase A (AURKA, Homo sapiens, UniProt O14965)).
For ROCK2 (Homo sapiens, UniProt O75116): remaining activity read 86.1%.
It gave 92.1% for remaining activity (CAMK1G (Homo sapiens, UniProt Q96NX5)).
For ROS1 (Homo sapiens, UniProt P08922): remaining activity read 97.5%.
It gave 93% for remaining activity (MAP3K8 (Homo sapiens, UniProt P41279)).
For RET (Homo sapiens, UniProt P07949): remaining activity read 106%.
The remaining activity was 99% (PTK2B (Homo sapiens, UniProt Q14289)).
The remaining activity was 95.1% (Cyclin-dependent kinase 2, with cyclin A (CDK2, Homo sapiens, UniProt P24941)).
For NTRK3 (Homo sapiens, UniProt Q16288): remaining activity read 95.8%.
It gave 92% for remaining activity (DMPK (Homo sapiens, UniProt Q09013)).
PRKD1 (Homo sapiens, UniProt Q15139) — remaining activity: 97.9%.
The remaining activity was 113% (DYRK4 (Homo sapiens, UniProt Q9NR20)).
The remaining activity was 107% (GRK5 (Homo sapiens, UniProt P34947)).
MAP3K2 (Homo sapiens, UniProt Q9Y2U5) — remaining activity: 76.1%.
The remaining activity was 106% (PKN2 (Homo sapiens, UniProt Q16513)).
For CSNK2A2 (Homo sapiens, UniProt P19784): remaining activity read 61.4%.
For SLK (Homo sapiens, UniProt Q9H2G2): remaining activity read 90%.
The remaining activity was 92.1% (HIPK3 (Homo sapiens, UniProt Q9H422)).

Series 4 — cell line: normal-adjacent organoid sample F; method: CellTiter-Glo; tested at: 1 µM; setting: replicate mean; reference: DMSO
`CNC(=O)c1cc(C(=O)N[C@H]2[C@@H]3COC[C@@H]32)cc2c1O[C@@H](CF)[C@@H]2c1ccccc1` gave a viability of 104%.
The viability of `Cc1cn(-c2cc(NC(=O)c3ccc4c(c3)CN(c3cncnc3)C[C@@H]4C)cc(C(F)(F)F)c2)cn1` is reported as 106%.
With `CN1CCN(Cc2ccc(Nc3ncc(Cl)c(Nc4ccccc4S(=O)(=O)N(C)C)n3)cc2)CC1` the viability was 0.5%.
The viability of `CN(C)[C@@H]1CCN(c2cc(-c3ccccc3)nc3ccnn23)C1` is reported as 107%.
With `C[C@@]1(Cc2ccc(C#N)cc2)C(=O)N(c2cc(Cl)cc(Cl)c2)c2ncc(C(=O)NC3(c4nc(C5CCC5)no4)CC3)n21` the viability was 96.1%.
For `Cn1cnc2c(F)c(Nc3ccc(Br)cc3Cl)c(C(=O)NOCCO)cc21`, the viability was 66.4%.
`N#CC1(c2ccccn2)CCN(Cc2cc(C(=O)O)c(=O)n3ccccc23)CC1` gave a viability of 95.8%.
With `CC(=O)N1CCC(c2ccc(C(=O)NC3=NCCN3)cc2C(F)(F)F)CC1` the viability was 113%.
With `COc1cc(-c2cn(C3CCc4ccccc4N(CC(F)(F)F)C3=O)nn2)ccc1-n1ccc(C)n1` (centres unmarked) the viability was 97.5%.
The viability of `Cc1c(NC(=O)c2cc(C(N)=O)nc3cc(F)ccc23)c(C(F)(F)F)nn1Cc1ccc(C#N)cc1` is reported as 29.1%.
`C[C@H](c1cccc(C#N)c1)n1cc(Cl)cc(C(N)=O)c1=N` gave a viability of 136%.
For `CCC(=O)N[C@H]1CC[C@@H](C(=O)N(C)c2ccc(-c3nc4ccccc4o3)cc2)C1`, the viability was 11.6%.
`CO[C@H]1CC[C@H](CNc2ccc(S(=O)(=O)NC(=O)c3ccc(N4CCN(CC5=C(c6ccc(Cl)cc6)CC(C)(C)CC5)CC4)cc3Oc3cnc4[nH]ccc4c3)cc2[N+](=O)[O-])CC1` has a viability of 66.5%.
For `Cn1nc(C(F)(F)F)cc1-c1cnc(N2CCc3cc(S(=O)(=O)Nc4c(F)cc(Cl)cc4F)cc(N4CCCC4=O)c32)nc1`, the viability was 98.8%.
The viability of `Cc1cc(-n2nc(Cc3cc(F)cc(C(F)(F)F)c3)nc2C)ccc1C(N)=O` is reported as 102%.

Excerpt of the above (series 3):
For SLK (Homo sapiens, UniProt Q9H2G2): remaining activity read 90%.
The remaining activity was 106% (PKN2 (Homo sapiens, UniProt Q16513)).
MAP3K2 (Homo sapiens, UniProt Q9Y2U5) — remaining activity: 76.1%.
It gave 92% for remaining activity (DMPK (Homo sapiens, UniProt Q09013)).
It gave 93% for remaining activity (MAP3K8 (Homo sapiens, UniProt P41279)).
For NTRK3 (Homo sapiens, UniProt Q16288): remaining activity read 95.8%.
The remaining activity was 92.1% (HIPK3 (Homo sapiens, UniProt Q9H422)).
